Experimental data gathered from unrelated publications.
A part holds a random share of what one study measured. Changes are numbered by the printed parent chain.

Series 1
Target: Histone acetyltransferase KAT6A, both winged helices, GST fusion (KAT6A, Homo sapiens, UniProt Q92794, residues 1-181)
Method: protein binding microarray
Molecule type: double-stranded DNA, one strand shown
Medium: in vitro
Tested at: not given
Notes: 8-mer, flanks averaged, mean of 2 arrays, mostly near background
Reference: not given
Direction: higher = stronger binding
Construct (chain): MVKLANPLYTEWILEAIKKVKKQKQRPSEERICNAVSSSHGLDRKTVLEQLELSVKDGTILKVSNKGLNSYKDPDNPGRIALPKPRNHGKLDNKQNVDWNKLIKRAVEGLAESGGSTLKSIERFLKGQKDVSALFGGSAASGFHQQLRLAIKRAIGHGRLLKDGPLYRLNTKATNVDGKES
Oligonucleotide | E-score
CGTAGGTC | -0.0162
ATCCTCCC | -0.093
GAGTCAGC | -0.00664
TACGAGTA | 0.0372
CCGAGGAA | 0.0101
TACGTGCA | -0.0215
AGCAAAAC | -0.0679
CTTACGGA | 0.0911
GGGACCCA | 0.0242
GATCCGCC | 0.156
GGTCGTCA | 0.0523
CAGGGTGG | -0.176
ATCGGATG | 0.0224
GACTCAGA | -0.107
TACCCGAA | 0.181
CGCCCTGA | 0.094
GTAATCTA | -0.0827
ATAGTTAA | 0.0753
CGGACAGA | 0.178
GCCATAGA | -0.0464
CGCCGATC | 0.271
GGAAGTTA | -0.0251
ATCCTAAC | 0.0253
ATGGACCC | 0.0195
ACCGACCA | -0.124

Series 2
Target: CCNE2, cyclin fold, Cln2 fusion (human)
Method: yeast growth competition, sequencing
Medium: yeast
Notes: weak parent motif
Reference: not given
Direction: higher = stronger binding
Starting sequence: REV3L docking peptide (human); PPVIIKYIIINRF
Variant | normalised enrichment score
I9A | 0.72
Y7A | 0.967
R12A | 0.269
I10A | 0.971
N11A | 0.42
I4A | 0.407

Series 3
Target: Ras GTPase-activating protein-binding protein 1, RRM domain (G3BP1, Homo sapiens, UniProt Q13283)
Sequence of UniProt Q13283 (whole entry, looked up): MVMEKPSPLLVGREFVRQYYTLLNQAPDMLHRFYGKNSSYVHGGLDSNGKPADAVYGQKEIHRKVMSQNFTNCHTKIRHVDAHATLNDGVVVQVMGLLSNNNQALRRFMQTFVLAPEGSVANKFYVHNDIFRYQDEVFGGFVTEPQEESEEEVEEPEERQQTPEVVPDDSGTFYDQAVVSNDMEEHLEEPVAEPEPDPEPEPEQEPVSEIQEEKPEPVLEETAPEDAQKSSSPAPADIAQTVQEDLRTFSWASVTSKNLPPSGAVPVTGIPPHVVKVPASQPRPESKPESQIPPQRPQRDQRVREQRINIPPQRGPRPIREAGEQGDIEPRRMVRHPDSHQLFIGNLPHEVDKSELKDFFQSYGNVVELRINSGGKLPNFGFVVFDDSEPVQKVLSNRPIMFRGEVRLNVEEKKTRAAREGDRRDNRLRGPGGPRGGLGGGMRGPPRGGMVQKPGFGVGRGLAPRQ
Method: RNA Bind-n-Seq
Molecule type: RNA
Medium: in vitro
Tested at: 1 µM
Notes: whole 134-nt RNA, ends assumed
Together with: 150 mM KCl
Reference: input library
Direction: higher = stronger binding
Constant ends, left off below: GGGAGUUCUACAGUCCGACGAUC … UGGAAUUCUCGGGUGUCAAGG
Oligonucleotide | log2 enrichment
UCAAGUCCUGUGCUACACAUCGUAUGUACCGAAUCGGUUUGGAGGAAAAAAAGGAAAGUAUUAUGUUACGCCGUUCGGAUCUGCACUUCC | -0.127
ACCAUGCAAGUGGGCAUCUUUGGGAAGUGGGGCAAGGGGGGGAUAGGGAGGGGGGUAACACUUUGGGAACAGGUGGUCCCAGGUCGUUUC | -0.442
CCUGUGCUACACAUCGUAUGUACCGAAUCAAACCCCCCCAAAUUUUUAAAUUUUUUUAAAAAAGUAUUAUGUUACGCCGUUCGGAUCUGC | -0.565
CCUGUGCUACACAUCGUAUGUACCGAAUCGGGAAAAAAAGGGAAAAAGGGAAAAAAAGGGAAAGUAUUAUGUUACGCCGUUCGGAUCUGC | -0.0454
AGUCCUGUGCUACACAUCGUAUGUACCGAAUCGGGGUUUGGGGUGGGGAAAAAGGGGAAAGUAUUAUGUUACGCCGUUCGGAUCUGCACU | 0.838
UGGAGAAGCGCUACCUGGCUGCUCAGCGUGAGGCAACAUCCAUCCAUGACCUCAAUGACAAGCUGGAGAAUGAGCUGGCCAACAAGGAGU | -0.269
AGUCCUGUGCUACACAUCGUAUGUACCGAAUCGGAAAAAGGGAAAAAGGAAAAAGGGGAAAGUAUUAUGUUACGCCGUUCGGAUCUGCAC | -0.00933
CAAGUCCUGUGCUACACAUCGUAUGUACCGAAUCGGGAGGGAAAAAAAGGGUGGGAAAGUAUUAUGUUACGCCGUUCGGAUCUGCACUUC | 0.745
UUGUCUACAGAACUAGACAGUACGGAUGGUGCCAAAGUUUUUAGUAAACAACCAGGAAGAAUCCAAAGAGUAGCAAGAGGAUCGGGUGUA | -0.351
UUGAAAGAAUUUGCCAACUUUGACUUUGAUGUCUGGAGGAAAAAGUAUAUGCGUUGGAUGAAUCACAAAAAGUCUCGAGUGAUGGAUUUC | -0.212
GCAGGAAGUAAAAACAAAUGGAAAUGCUUCGGAUAGUGGCAGGAAAGGGGGUUGCUAAGGAAAGGGUGGGAUGGGAGUGGGUAAAGAGUU | 1.25
CCUGUGCUACACAUCGUAUGUACCGAAUCGGAAAAAAGGGGAAAAAAGGGGAAAAAAGGGGAAAGUAUUAUGUUACGCCGUUCGGAUCUG | -0.105
UCCUGUGCUACACAUCGUAUGUACCGAAUCGGAAAAAAGGGAAAAAAGGGGAAAAAAGGAAAGUAUUAUGUUACGCCGUUCGGAUCUGCA | -0.0764
CCUCAAGUCCUGUGCUACACAUCGUAUGUACCGAAUCGGUGGGGUGGGUGGGAAAGUAUUAUGUUACGCCGUUCGGAUCUGCACUUCCAG | 0.324

Series 4
Target: Interferon regulatory factor 5, full length, phosphomimetic (IRF5, Homo sapiens, UniProt Q13568-2, residues 1-514, K96S/S451D/S453D/S456D/S462D)
Method: protein-binding microarray
Molecule type: double-stranded DNA, one strand shown
Medium: in vitro
Tested at: 250 nM
Notes: 60-bp whole probe
Together with: salmon DNA 0.4 mg/ml
Reference: random background probes
Direction: higher = stronger binding
Constant ends, left off below: GCCTAGCAC … GTCTTGATTCGCTTGACGCTGCTG
Oligonucleotide | log fluorescence
TTAGATATCGGGTATCGCTTAGTGCTA | 3.31 z-score
TCATACCTGAATATCTTACTGTGCTAG | 0.445 z-score
GACGGACTGGACTTACGGGACGTGCTA | -0.672 z-score
TTAGGACGGGGGTTTCGGTTAGTGCTA | 8.03 z-score
CTACTTCTCTTTTGGCTTTCGTGCTAG | 1.93 z-score
GACGACATCAGTTTCGAGACGTGCTAG | 5.27 z-score
TCATTCTTGCATCTGGGACTGTGCTAG | 0.413 z-score
TTAGGACTGGCGTTTCGGTTAGTGCTA | 5.6 z-score
TCCCCTCTAGGTTCTCTGAAAGTGCTA | -0.0123 z-score
TGTTTTACAGGTTCTCTTTTAGTGCTA | 0.652 z-score
GTGGCCTTTGTTTCCAGGCAGTGCTAG | -0.35 z-score
TCAATTATATATATCATACTGTGCTAG | 0.887 z-score
GACGGACTGCTTCTCCTGGCGTGCTAG | -0.466 z-score
CTGTTTTTCTCACCACATTTTGTGCTA | 1.5 z-score
TTAGATCTCAGTCACGATTAGTGCTAG | -0.0109 z-score
GACGGTATCGGGTTTCGGGAGGTGCTA | 4.38 z-score
TCAATTTTCTCTTATTCACTGTGCTAG | 1.88 z-score
TCAACTTTCCAATTGTCACTGTGCTAG | 1.06 z-score
TTAGGCCTGCTTATCCTTTAGTGCTAG | -0.417 z-score
TTTTTTTTTTTTTTTACTTCGTGCTAG | 1.46 z-score
GAAGATTCCAGTTTCGAGACGTGCTAG | 6.04 z-score
TCATTTATGGTATTTTTACTGTGCTAG | 0.819 z-score
TTAGGTTTCGGGACTGGGCTAGTGCTA | 5.66 z-score
GGCGAACTGGGGTATCGAGACGTGCTA | -0.0872 z-score
GACGGTATCGACACTGGGGATGTGCTA | 1.77 z-score

Series 5
Target: Centromere-binding protein 1, full length, His-tagged (CBF1, Saccharomyces cerevisiae, UniProt P17106, residues 1-351)
Sequence of UniProt P17106 (whole entry, looked up): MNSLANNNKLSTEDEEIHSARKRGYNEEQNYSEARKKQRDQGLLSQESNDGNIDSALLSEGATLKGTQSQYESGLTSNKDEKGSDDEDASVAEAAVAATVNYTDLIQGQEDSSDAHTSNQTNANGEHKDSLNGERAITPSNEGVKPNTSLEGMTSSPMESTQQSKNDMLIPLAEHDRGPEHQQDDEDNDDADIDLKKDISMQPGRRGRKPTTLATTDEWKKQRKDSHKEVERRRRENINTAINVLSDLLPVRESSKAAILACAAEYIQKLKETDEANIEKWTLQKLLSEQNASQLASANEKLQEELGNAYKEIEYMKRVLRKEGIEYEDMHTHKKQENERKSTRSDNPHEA
Method: competition protein-binding microarray
Molecule type: double-stranded DNA, one strand shown
Medium: in vitro
Tested at: 2 µM
Notes: whole 60-bp probe, lowest competitor level
Together with: Pho4 competitor, 0.05 µM
Direction: higher = stronger binding
Constant ends, left off below: … GTCTTGATTCGCTTGACGCTGCTG
Oligonucleotide | fluorescence intensity
CGGGGTTAAGTTTGGTAGGTGGGTGGCTTGCAGCAG | 69.5 a.u.
CGGTAACATTTGAAACATGTGCCAGACTCCGAATGG | 214 a.u.
CATACCCAACCTTGCTCAGTGGGTGAAGATATTTGT | 74.2 a.u.
GCCACCATGGATCCACACGTATTTGGATCATCTTCG | 66.6 a.u.
TTCAACGCCCTGGCTGATGTGACGCTGTTGGTGGAG | 53.4 a.u.
CTTCTGTAAATTTTTCACGTGCAATGACGCGCCCCG | 953 a.u.
CTAACGAAGGTTTGTCACGGCACTTACAAGCCAAGT | 76.4 a.u.
CTTCTGTAAATTTGTGTCGTGGGTGGACGCGCCCCG | 72.2 a.u.
CATACCCAACCTTGCGTAGTGGGTGAAGATATTTGT | 71.2 a.u.
AAATTACTAAGTTGCAGCGTGGGTGACGCCGTATGA | 71.7 a.u.
CGTCCTAGTGATTGGAAGGTGGGTGCCATGAGGAAG | 71.4 a.u.
TTCTGACGGAGACAGAACGTGGCCGTGTACACTCTT | 75.2 a.u.
CTTTCCCGATCTTGCATAGTGGGTGTAGCACATTTG | 63.3 a.u.
CTAACGAAGGTTTGTCACACTACTTACAAGCCAAGT | 94 a.u.
TATTTAGATGTCGATGACGTGTGGAGCGTAAAAATT | 87.8 a.u.
GTTACCAATTTGAGACTTGTAATATGGTTGGTTACC | 76.4 a.u.
TTCTGTATTCCGGCGCAGGTGATGAACTTGATTACG | 145 a.u.
ACTGAGCATCGTCGGCACGTCTTTGCAGCATCCAAT | 54.2 a.u.
GAACTGCCGCCGGTGGACGTGCTTTGCGTCCGAGTC | 54.7 a.u.
CGGGGTTAAGTTTGTGACGTGGGTGGCTTGCAGCAG | 93.6 a.u.
TTTAAAAGATGAAAGCACGTTACAAGCCTCTTCTTA | 117 a.u.
CTAACGAAGGTTTGCCAGGTGGGTGACAAGCCAAGT | 67.3 a.u.
CTATTGGTATATGTGTCCGTGACAAAGTAGTTAGTG | 159 a.u.
GTCTTGTCTCATTTTCACGTGTGGTTCCCCACTTCA | 478 a.u.
GTAGCAGAGGTGGTTCCCGTGGAGGTTCCAGAGGTG | 67.4 a.u.

Some of these lines once more (series 5):
Oligonucleotide | fluorescence intensity
CTAACGAAGGTTTGCCAGGTGGGTGACAAGCCAAGT | 67.3 a.u.
CGGGGTTAAGTTTGGTAGGTGGGTGGCTTGCAGCAG | 69.5 a.u.
CGGGGTTAAGTTTGTGACGTGGGTGGCTTGCAGCAG | 93.6 a.u.
CTATTGGTATATGTGTCCGTGACAAAGTAGTTAGTG | 159 a.u.
TTCTGACGGAGACAGAACGTGGCCGTGTACACTCTT | 75.2 a.u.
TATTTAGATGTCGATGACGTGTGGAGCGTAAAAATT | 87.8 a.u.
TTCAACGCCCTGGCTGATGTGACGCTGTTGGTGGAG | 53.4 a.u.
CTTCTGTAAATTTTTCACGTGCAATGACGCGCCCCG | 953 a.u.
CATACCCAACCTTGCGTAGTGGGTGAAGATATTTGT | 71.2 a.u.
GTCTTGTCTCATTTTCACGTGTGGTTCCCCACTTCA | 478 a.u.
